Earlier results, collected from citations in different studies.
Numbered parts are unrelated; values within a part may stem from several laboratories. pIC50, pKi: −log10 of the molar value.
Sequence of UniProt Q02763 (whole entry, looked up): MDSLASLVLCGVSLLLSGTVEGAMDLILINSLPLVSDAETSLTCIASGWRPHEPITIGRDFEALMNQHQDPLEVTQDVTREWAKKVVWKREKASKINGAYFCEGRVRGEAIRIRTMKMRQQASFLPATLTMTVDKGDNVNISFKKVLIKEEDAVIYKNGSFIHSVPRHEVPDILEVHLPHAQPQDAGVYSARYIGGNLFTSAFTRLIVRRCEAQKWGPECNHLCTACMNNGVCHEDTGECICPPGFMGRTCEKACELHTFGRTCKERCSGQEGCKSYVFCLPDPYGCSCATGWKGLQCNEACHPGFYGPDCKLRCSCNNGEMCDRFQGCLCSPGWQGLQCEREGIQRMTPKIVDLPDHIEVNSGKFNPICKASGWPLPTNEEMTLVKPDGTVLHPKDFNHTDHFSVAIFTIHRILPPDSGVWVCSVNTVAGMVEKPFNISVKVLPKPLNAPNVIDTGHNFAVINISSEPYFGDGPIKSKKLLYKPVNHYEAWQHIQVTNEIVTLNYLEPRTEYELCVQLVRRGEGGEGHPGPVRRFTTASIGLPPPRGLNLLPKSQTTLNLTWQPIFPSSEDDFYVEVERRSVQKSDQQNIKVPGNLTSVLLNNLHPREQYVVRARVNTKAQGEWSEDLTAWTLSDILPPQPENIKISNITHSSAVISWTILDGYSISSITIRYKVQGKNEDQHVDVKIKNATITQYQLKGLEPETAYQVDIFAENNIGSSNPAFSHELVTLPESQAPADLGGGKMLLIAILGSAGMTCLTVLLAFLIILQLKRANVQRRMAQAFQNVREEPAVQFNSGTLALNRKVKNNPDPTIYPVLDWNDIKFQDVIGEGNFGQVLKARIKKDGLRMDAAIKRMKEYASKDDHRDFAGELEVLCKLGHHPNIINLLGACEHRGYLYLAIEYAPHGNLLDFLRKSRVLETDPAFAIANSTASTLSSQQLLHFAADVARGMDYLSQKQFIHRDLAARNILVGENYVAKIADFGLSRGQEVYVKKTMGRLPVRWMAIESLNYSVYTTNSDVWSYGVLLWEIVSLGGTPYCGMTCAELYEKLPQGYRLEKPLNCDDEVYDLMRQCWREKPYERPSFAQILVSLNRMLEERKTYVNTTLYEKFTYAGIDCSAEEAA
Sequence of UniProt Q16832 (whole entry, looked up): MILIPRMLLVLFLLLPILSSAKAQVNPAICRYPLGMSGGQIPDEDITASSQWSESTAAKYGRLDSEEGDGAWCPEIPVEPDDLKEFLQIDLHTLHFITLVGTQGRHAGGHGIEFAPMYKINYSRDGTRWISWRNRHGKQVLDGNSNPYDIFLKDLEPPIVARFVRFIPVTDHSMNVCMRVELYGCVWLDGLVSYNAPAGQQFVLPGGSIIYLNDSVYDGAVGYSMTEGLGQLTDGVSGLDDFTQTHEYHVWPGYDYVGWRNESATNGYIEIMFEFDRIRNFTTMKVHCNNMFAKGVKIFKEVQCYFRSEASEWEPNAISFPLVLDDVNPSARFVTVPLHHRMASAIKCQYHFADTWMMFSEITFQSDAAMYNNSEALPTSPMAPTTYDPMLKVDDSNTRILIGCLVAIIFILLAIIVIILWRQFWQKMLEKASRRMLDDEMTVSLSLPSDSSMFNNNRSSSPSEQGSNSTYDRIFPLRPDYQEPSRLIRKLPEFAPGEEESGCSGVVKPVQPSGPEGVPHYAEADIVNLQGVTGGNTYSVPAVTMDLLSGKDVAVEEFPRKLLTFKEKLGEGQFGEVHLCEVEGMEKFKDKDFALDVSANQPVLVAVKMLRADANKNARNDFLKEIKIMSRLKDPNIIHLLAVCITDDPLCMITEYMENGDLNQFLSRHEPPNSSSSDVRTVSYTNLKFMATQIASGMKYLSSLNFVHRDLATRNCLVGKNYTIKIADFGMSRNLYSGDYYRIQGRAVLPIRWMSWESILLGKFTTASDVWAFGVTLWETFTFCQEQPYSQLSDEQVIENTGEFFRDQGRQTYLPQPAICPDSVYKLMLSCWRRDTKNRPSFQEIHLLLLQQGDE

Set 1 — organism: Toxoplasma gondii; observed: parasite growth; tested at: concentration not given; notes: published screen
SMILES | activity class
C[C@@H]1C[C@H]2[C@@H]3CCC4=CC(=O)C=C[C@]4(C)[C@@]3(F)[C@@H](O)C[C@]2(C)[C@@]1(O)C(=O)CO | inactive
CC[C@@H]1C(=O)OC[C@@H]1Cc1cncn1C.Cl | inactive
CCCCN1CCCC1CNC(=O)c1cc(C#N)c2ccccc2c1OC (stereo not shown) | inactive
CCC(C)(C)C(=O)O[C@H]1C[C@@H](C)C=C2C=C[C@H](C)[C@H](CC[C@@H]3C[C@@H](O)CC(=O)O3)[C@H]21 | inactive
COCCCC/C(=N\OCCN)c1ccc(C(F)(F)F)cc1 | inactive
Cl.Nc1nc2ccc(OC(F)(F)F)cc2s1 | inactive
CC(Cc1ccccc1)(NC(=O)CN)c1ccccc1.Cl (stereo not shown) | inactive
COc1cc(-c2ccc(=O)[nH]n2)ccc1OC(F)F | inactive
CC[C@H](C)C(=O)O[C@H]1C[C@@H](C)C=C2C=C[C@H](C)[C@H](CC[C@@H]3C[C@@H](O)CC(=O)O3)[C@H]21 | inactive
CNS(=O)(=O)Cc1ccc2[nH]cc(CCN(C)C)c2c1 | inactive
CCC1(c2ccccc2)C(=O)NCNC1=O | inactive
CC1=NS(=O)(=O)c2cc(Cl)ccc2N1 | inactive
Cn1nnc2c(C(N)=O)ncn2c1=O | inactive
COC(=O)C1=C(C)NC(C)=C(C(=O)OC(C)C)C1c1cccc2nonc12 (stereo not shown) | inactive

Set 2 — cell line: MCF7; tested at: concentration not given
SMILES: CCCCCCCCNC(C)C(O)c1ccc(SC(C)C)cc1 (stereo not shown)
method | refers to | time | relative to | fold change
microarray, Connectivity Map | LPIN1 mRNA | 6 h | DMSO | 2.35
microarray | SQSTM1 mRNA |  | DMSO | 1.66
microarray, Connectivity Map | INSIG1 mRNA | 6 h | DMSO | 2
microarray | CALHM2 mRNA (probe 57715_at) |  | vehicle (DMSO) | 1.4

Set 3 — target: human PDE10A; method: biochemical
SMILES | pKi
COCCOc1nc(-c2ccc(Cl)nc2)nc2c1CN(C(=O)c1ncn3ccccc13)CC2 | 9.00
CC(C)CC(=O)N1CCc2nc(-c3ccc(Br)cc3)nc(N(C)Cc3ccccc3)c2C1 | 6.28
COCCc1ccc(-c2c(C)nc3c(N4CCOCC4)ccnn23)cn1 | 7.89

Mixed results
SMILES | target or system | assay | system | conditions | quantity | result
Cc1ccc2nc(NCCN)c3ncc(C)n3c2c1 | IKK-alpha and IKK-beta | cellular potency |  |  | pIC50 | ~5.40
Cc1ccc(C(=O)Nc2cccc(C(F)(F)F)c2)cc1Nc1cncc(C(N)=O)c1 | DDR2 (Homo sapiens, UniProt Q16832) | enzyme activity, radiometric |  |  | pIC50 | 7.92
CN(C)CC(c1ccc(O)cc1)C1(O)CCCCC1 (stereo not shown) | serotonin transporter |  |  |  | pIC50 | 7.82
Cc1cc(C)c(-n2ccn3nc(-c4cccnc4)cc23)cc1NC(=O)c1cc(C#N)cc(S(F)(F)(F)(F)F)c1 | TEK (Homo sapiens, UniProt Q02763) | NanoBRET | cells |  | pIC50 | 8.77
O=C(O[C@@H]1Cc2c(O)cc(O)cc2O[C@@H]1c1cc(O)c(O)c(O)c1)c1cc(O)c(O)c(O)c1 |  |  | cell culture medium | rapid autoxidation | stability | unstable
C=CC(=O)N1CCN(c2ncnc3c(F)c(-c4c(O)cccc4F)c(Cl)cc23)CC1 | NCI-H358 | refers to: phospho-ERK |  | 2 h | pIC50 | 6.51
CCCCCCCCCCCCCCCC(=O)N[C@@H](CCC(=O)NCCCC[C@H](NC(=O)[C@H](C)NC(=O)[C@H](C)NC(=O)[C@H](CCC(N)=O)NC(=O)CNC(=O)[C@H](CCC(=O)O)NC(=O)[C@H](CC(C)C)NC(=O)[C@H](Cc1ccc(O)cc1)NC(=O)[C@H](CO)NC(=O)[C@H](CO)NC(=O)[C@@H](NC(=O)[C@H](CC(=O)O)NC(=O)[C@H](CO)NC(=O)[C@@H](NC(=O)[C@H](Cc1ccccc1)NC(=O)[C@@H](NC(=O)CNC(=O)[C@H](CCC(=O)O)NC(=O)[C@H](C)NC(=O)[C@@H](N)Cc1cnc[nH]1)[C@@H](C)O)[C@@H](C)O)C(C)C)C(=O)N[C@@H](CCC(=O)O)C(=O)N[C@@H](Cc1ccccc1)C(=O)N[C@H](C(=O)N[C@@H](C)C(=O)N[C@@H](Cc1c[nH]c2ccccc12)C(=O)N[C@@H](CC(C)C)C(=O)N[C@H](C(=O)N[C@@H](CCCNC(=N)N)C(=O)NCC(=O)N[C@@H](CCCNC(=N)N)C(=O)NCC(=O)O)C(C)C)[C@@H](C)CC)C(=O)O |  |  | overweight or obese adults | 3.0 mg | breast cancer incidence | 0.6%

Repeated from above (set 1):
SMILES | activity class
CC1=NS(=O)(=O)c2cc(Cl)ccc2N1 | inactive
Cl.Nc1nc2ccc(OC(F)(F)F)cc2s1 | inactive
